Results from different studies.
Each numbered part is a random draw from the data of one study; scales do not carry over between parts.

Set 1
Target: TAR DNA-binding protein 43, full length, His tag (TARDBP, Homo sapiens, UniProt Q13148, residues 1-414)
Technique: RNA Bind-n-Seq
Molecule type: RNA
Sample: in vitro
Tested at: 20 nM
Notes: 6-mer, flanks averaged, single round
Added: 150 mM LiCl
Relative to: input library
Reading: higher = stronger binding
Quantity: 6-mer enrichment (R)
UUGGCC: 1.04
GCCGAG: 1
AAAAUC: 0.858
GUCGCU: 0.952
AGGAAC: 0.863

Set 2
Target: Centromere-binding protein 1, full length, His-tagged (CBF1, Saccharomyces cerevisiae, UniProt P17106, residues 1-351)
Chain of UniProt P17106 (whole entry, looked up): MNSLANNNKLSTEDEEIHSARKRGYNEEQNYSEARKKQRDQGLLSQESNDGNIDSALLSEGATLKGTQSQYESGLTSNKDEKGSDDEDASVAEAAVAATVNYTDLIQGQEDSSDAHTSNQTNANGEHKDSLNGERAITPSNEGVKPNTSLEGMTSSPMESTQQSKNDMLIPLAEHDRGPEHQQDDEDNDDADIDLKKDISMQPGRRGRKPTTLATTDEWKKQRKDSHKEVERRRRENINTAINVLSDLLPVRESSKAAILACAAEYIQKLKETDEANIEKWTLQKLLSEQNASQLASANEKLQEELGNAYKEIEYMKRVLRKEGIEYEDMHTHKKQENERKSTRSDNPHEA
Technique: competition protein-binding microarray
Molecule type: double-stranded DNA, one strand shown
Sample: in vitro
Tested at: 2 µM
Notes: whole 60-bp probe, lowest competitor level
Added: Pho4 competitor, 0.05 µM
Reading: higher = stronger binding
Quantity: fluorescence intensity
ACCTTTCAGTTTCCGCGCGTGACTCGGATTTGGCGGGTCTTGATTCGCTTGACGCTGCTG: 744 a.u.
CCAAGGGATTACCATCACGTAAGACTCTTGATCCTTGTCTTGATTCGCTTGACGCTGCTG: 67.3 a.u.
TAAAAACGATTTCACCACGTGACTCGTATTAGAAATGTCTTGATTCGCTTGACGCTGCTG: 11800 a.u.
TTGGCACTTCGCACAGGCGTGACTCGTTTCTGTGAAGTCTTGATTCGCTTGACGCTGCTG: 235 a.u.

Set 3
Target: Histone acetyltransferase KAT6A, both winged helices, GST fusion (KAT6A, Homo sapiens, UniProt Q92794, residues 1-181)
Technique: protein binding microarray
Molecule type: double-stranded DNA, one strand shown
Sample: in vitro
Tested at: not given
Notes: 8-mer, flanks averaged, mean of 2 arrays, mostly near background
Relative to: not given
Reading: higher = stronger binding
Quantity: E-score
Construct (chain): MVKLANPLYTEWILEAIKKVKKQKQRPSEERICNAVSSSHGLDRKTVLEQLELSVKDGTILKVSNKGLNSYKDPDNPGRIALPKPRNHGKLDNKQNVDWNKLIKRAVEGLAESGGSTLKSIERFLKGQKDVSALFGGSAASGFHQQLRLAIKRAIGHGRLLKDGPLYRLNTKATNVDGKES
CAGTCCCG: 0.139
CCTTCGAC: -0.00341
TCAACACA: -0.213
CTTACTCC: -0.0834
CGGACGTC: 0.212

Single results of other studies
PhoQ, residues 284 288 289 292 302 303 WSHMKI — fold induction (PhoP, residues 12 14 15 18 19 AGCRL (Escherichia coli, UniProt P23836); Sort-seq, measured: YFP reporter; E. coli; PhoQ-PhoP variant library, added: 10 µM Mg2+; relative to: high Mg2+ state, higher = stronger signaling): 13.3

Some of these lines once more (set 3):
TCAACACA: -0.213
CTTACTCC: -0.0834
